Measured values gathered from unrelated publications.
Each line is one published result; not all experiments were run side by side. “And” joins repeats or separate records; there may be more than shown. Numbers after ± are the reported error.
PPO3: PPO3 (Agaricus bisporus, UniProt C7FF04)
USP14: Ubiquitin carboxyl-terminal hydrolase 14 (USP14, Homo sapiens, UniProt P54578)

Cc1ncsc1-c1ccc(C(C)NC(=O)C2CC(O)CN2C(=O)C(NC(=O)CCCCCCCCCCN2CCCC(Nc3ncc(Cl)c(Nc4ccccc4S(=O)(=O)C(C)C)n3)C2)C(C)(C)C)cc1 (stereo not shown)  log2 fold change (22Rv1; RNA-seq, item: NNMT mRNA; concentration not given; relative to: DMSO): -3.83
OC[C@H]1O[C@@H](Oc2cc3c(O)cc(O)cc3[o+]c2-c2cc(O)c(O)c(O)c2)[C@H](O)[C@@H](O)[C@H]1O  binding free energy ΔG (PPO3; fluorescence quenching; 318 K): -7.443 ± 0.00956 kcal/mol
N#CN1CC[C@H](C(=O)Nc2nc3c(s2)CN(C(=O)Cn2cc(COCCOCCOCCOCCNC(=O)CCCC[C@@H]4SC[C@@H]5NC(=O)N[C@@H]54)nn2)CC3)C1  iBAQ abundance (Ubiquitin carboxyl-terminal hydrolase isozyme L3 (UCHL3, Homo sapiens, UniProt P15374); probe binding, affinity probe, neutravidin pull-down LC-MS/MS; HEK293T, cell lysate; 5 µM, 1 h, mean of three replicates, unit not given; higher = more pulled down): 8.82e+06
CSCC[C@H](NC(=O)[C@H](CCC(N)=O)NC(=O)[C@H](CCCCN)NC(=O)[C@H](CCCNC(=N)N)NC(=O)[C@H](Cc1ccc(O)cc1)NC(=O)[C@H](CCCNC(=N)N)NC(=O)[C@H](CO)NC(=O)[C@H](Cc1ccc(O)cc1)NC(=O)[C@H](CO)NC(=O)[C@H](CC(=O)O)NC(=O)[C@@H](NC(=O)[C@@H](N)Cc1ccccc1)[C@@H](C)O)C(=O)N[C@@H](C)C(=O)N[C@H](C(=O)N[C@@H](CCCCN)C(=O)N[C@@H](CCCCn1cc(C[C@H](NC(=O)CNC(=O)[C@H](CO)NC(=O)[C@H](CCCNC(=N)N)NC(=O)[C@H](CO)NC(=O)[C@H](CC(C)C)NC(=O)[C@H](CC(C)C)NC(=O)CNC(=O)[C@H](C)NC(=O)[C@H](CC(C)C)NC(=O)[C@H](CCCNC(=N)N)NC(=O)[C@H](Cc2c[nH]cn2)NC(=O)[C@@H](NC(=O)[C@@H](N)C(C)C)[C@@H](C)O)C(=O)N[C@H](C(=O)N[C@H](C(=O)N[C@@H](CCCCN)C(=O)N[C@@H](CC(N)=O)C(=O)N[C@@H](CC(N)=O)C(=O)N[C@@H](Cc2ccccc2)C(=O)N[C@H](C(=O)N2CCC[C@H]2C(=O)N[C@H](C(=O)N[C@@H](CC(N)=O)C(=O)N[C@H](C(=O)NCC(=O)N[C@@H](CO)C(=O)N[C@@H](CCCCN)C(=O)N[C@@H](C)C(=O)N[C@@H](Cc2ccccc2)C(N)=O)C(C)C)[C@@H](C)O)C(C)C)C(C)C)C(C)C)nn1)C(=O)N[C@@H](Cc1ccc(O)cc1)C(=O)N[C@@H](CC(C)C)C(=O)N[C@@H](C)C(=O)N[C@@H](C)C(=O)N[C@H](C(=O)N[C@@H](CC(C)C)C(=O)NCC(=O)N[C@@H](CCCCN)C(=O)N[C@@H](CCCNC(=N)N)C(=O)N[C@@H](Cc1ccc(O)cc1)C(=O)N[C@@H](CCCCN)C(=O)N[C@@H](CCC(N)=O)C(=O)N[C@@H](CCCNC(=N)N)C(=O)N[C@H](C(=O)N[C@@H](CCCCN)C(=O)N[C@@H](CC(N)=O)C(=O)N[C@@H](CCCCN)C(N)=O)C(C)C)C(C)C)C(C)C  A2 (Pituitary adenylate cyclase-activating polypeptide type I receptor (ADCYAP1R1, Homo sapiens, UniProt P41586); cAMP accumulation, antagonist; transfected COS-7 cells; Schild slope not unity, together with: VIP agonist): 30.2 nM
Clc1ccc(-c2cc(CN3c4ccccc4C=Cc4ccccc43)on2)cc1  apparent Vmax (PPO3; enzyme activity, inhibitor; concentration not given): 34.1 µmol/min
C[n+]1cccc2cc(/C=N/NC(=O)c3cccc(C(=O)N/N=C/c4ccc5c(ccc[n+]5C)c4)n3)ccc21  ΔTm (MYC parallel G4 DNA; FRET melting; 1 µM, DNA 0.2 µM, together with: duplex DNA competitor 10 µM): 8.8 ± 0.3 °C
CC(=O)NCC1CCCCN1c1nc(NCC2Cc3ccccc3O2)nc(N2CC3C(CCOc4cc(-c5scnc5C)ccc4CNC(=O)C4CC(O)CN4C(=O)C(NC(=O)C4(F)CC4)C(C)(C)C)C3C2)n1 (stereo not shown)  Dmax (VHL/BRD9 (Homo sapiens, UniProt P40337+Q9H8M2); BRD9 degradation, degrader, HiBiT; HEK293T BRD9-HiBiT; 15 h): 77%
COC(=O)Cc1cc2c(cc1C(=O)c1cccc(I)c1)OCO2  current amplitude after recovery (Gria2/Glutamate receptor 3 (Rattus norvegicus, UniProt P19491+P19492); glutamate-evoked current, whole-cell patch clamp; HEK-293T; concentration not given, glutamate alone after washout, together with: glutamate): 490 ± 31 pA
CCCCCCCCCCCCCCCC(=O)NCCCC[C@H](NC(=O)[C@H](CCC(=O)O)NC(=O)[C@H](Cc1ccc(O)cc1)NC(=O)[C@H](CCC(=O)O)NC(=O)COCC(=O)NCCCOCCOCCOCCCNC(=O)[C@H](Cc1c[nH]c2ccccc12)NC(=O)[C@H](CCCCN)NC(=O)[C@H](C)NC(=O)[C@H](CCCCNC(=N)N)NC(=O)[C@H](CCC(N)=O)NC(=O)[C@H](Cc1c[nH]cn1)NC(=O)[C@H](CCSC)NC(=O)[C@H](CC(C)C)NC(=O)[C@H](CCC(N)=O)NC(=O)[C@@H](NC(=O)[C@H](CCC(=O)O)NC(=O)C(C)(C)NC(=O)[C@@H](NC(=O)C(C)(C)N)C(C)C)[C@@H](C)CC)C(=O)N[C@@H](CCC(=O)O)C(=O)N[C@@H](Cc1ccc(O)cc1)C(=O)N[C@@H](CCC(=O)O)C(N)=O  cAMP luminescence AUC (Parathyroid hormone/parathyroid hormone-related peptide receptor (PTH1R, Homo sapiens, UniProt Q03431); agonist; Saos-2 with cAMP reporter; 100 nM, 30 min, ligand-on phase; higher = more cAMP): 80.1 a.u.
O=[N+]([O-])c1cc(Br)cc([N+](=O)[O-])c1NS(=O)(=O)c1ccc(Br)cc1  HAB1 phosphatase activity (PYL5, with HAB1 (Arabidopsis thaliana, UniProt Q9FLB1); antagonist; 5 µM, together with: ABA 5 µM; higher = more HAB1 activity): 0.083 a.u. and 0.103 a.u.
C=CC(=O)N1C[C@H](C)N(c2nc(OC[C@@]34CCCN3C[C@H](F)C4)nc3c(F)c(-c4ccc(F)c5sc(N)c(C#N)c45)c(C(F)(F)F)cc23)C[C@H]1C  dissociation rate constant (GTPase KRas, GppNHp-bound (KRAS, Homo sapiens, UniProt P01116, G12V); binding): 0.608 ± 0.094 s⁻¹
Nc1ncc(-c2cc(-c3cnn(CC(F)(F)F)c3)ncc2F)nc1C(=O)NC1CNCC(F)C1 (stereo not shown)  remaining binding (CAMK2D; KINOMEscan; 1 µM; relative to: DMSO control): 85%
CNS(=O)(=O)Nc1nccc(Cc2c(C)c3ccc(Oc4ncccc4F)cc3oc2=O)c1F  IC50 (GA-10; cell viability; 7 days): > 1000 nM
COC1CN([C@H]2CC[C@H]([C@@]3(C)Oc4c(Cl)cc(C(=O)NCc5c(SC)cc(C)[nH]c5=O)c(C)c4O3)CC2)C1  log2 fold change (RNA-seq, item: RAB19 mouse homolog; mouse, HT-1376 xenograft, whole blood; dose not given; relative to: vehicle): 0.25
N=C(N)NCCS(=O)(=O)O  normalised MST signal (Sodium- and chloride-dependent taurine transporter (SLC6A6, Homo sapiens, UniProt P31641, Y138A); binding, microscale thermophoresis; 488 nM, room temperature, together with: 50 nM labelled protein; higher = more binding): 0.0702
COC(=O)[C@@]1(C)C=C(C(=O)Nc2cccc(C(=O)Nc3ccc(Nc4nccc(-c5cccnc5)n4)c(C)c3)c2)C(=O)CC1  remaining activity (Mitogen-activated protein kinase 1 (MAPK1, Homo sapiens, UniProt P28482); enzyme activity, inhibitor; 0.02032 µM, unit not given; relative to: vehicle): 0.96 and 1 and 1.01
CC(C=CC=C(C)C=CC1=C(C)CCCC1(C)C)=CC=O  Pearson correlation coefficient (Rhodopsin (RHO, Homo sapiens, UniProt P08100, T17M); ER retention, immunostaining co-localization, item: opsin with calnexin; COS-7 transfected T17M; 10.00 µM): 0.46
O=S1(=O)C=C(N/C=N/c2ccccc2F)c2ccccc21  inhibition (USP14; enzyme activity, inhibitor; 17 µM): 12%
CC[n+]1cccc2cc(/C=N/NC(=O)c3ccc4ccc(C(=O)N/N=C/c5ccc6c(ccc[n+]6CC)c5)nc4n3)ccc21  ΔTm (MYC parallel G4 DNA; FRET melting; 1 µM, DNA 0.2 µM, together with: duplex DNA competitor 10 µM): 9 ± 0.2 °C
N[C@@H](CCC(=O)N[C@@H](CS[Se]Cc1ccc(-c2cccc(C(O)c3ccc(Cl)c(Cl)c3)c2)cc1)C(=O)NCC(=O)O)C(=O)O (stereo partly shown)  kinact/KI (Tyrosine-protein phosphatase non-receptor type 5 (PTPN5, Homo sapiens, UniProt P54829); enzyme activity, inhibitor): 1.21e+06 M⁻¹ s⁻¹
C[C@@H](Nc1nc(N[C@H](C)C(F)(F)F)nc(-c2cccc(Cl)n2)n1)C(F)(F)F  maximal inhibition (Isocitrate dehydrogenase [NADP] cytoplasmic (IDH1, Homo sapiens, UniProt O75874, R132H); 2-HG production, inhibitor; neurospheres 522): 96%
O=C1NC(=O)C(CCCO)C(=O)C1=NNc1c(Cl)cccc1Cl (stereo not shown)  inhibition (USP14; enzyme activity, inhibitor; 17 µM): 28%
C[Si](C)(C)C[C@H](CN)CC(=O)O  inhibition (Sigma non-opioid intracellular receptor 1 (SIGMAR1, Homo sapiens, UniProt Q99720); ligand displacement, radioligand; 250 µM): -7%
CCCCCC(O)/C=C/C=O (stereo not shown)  isoTOP-ABPP ratio (Ketosamine-3-kinase, C24 (FN3KRP, Homo sapiens, UniProt Q9HA64); IA-probe cysteine labelling, covalent modifier, competitive isoTOP-ABPP; proteome, soluble, MDA-MB-231; 100 µM, in vitro; relative to: DMSO over compound, higher = stronger blockade): 15
CC[C@H](C)[C@@H]1NC(=O)[C@H](Cc2ccccc2)NC(=O)[C@H](CCC(=O)O)NC(=O)[C@H](CCCNC(=N)N)NC(=O)CNC(=O)[C@@H](NC(=O)[C@H](CC(C)C)NC(=O)[C@H](CCCNC(=N)N)NC(=O)[C@@H](NC(=O)CNC(=O)[C@H](Cc2ccc(O)cc2)NC(=O)[C@@H]2CCCN2C(=O)[C@H](C)NC(=O)[C@H](C)NC(=O)[C@@H](N)CCCNC(=N)N)C(C)C)CSSC[C@@H]2NC(=O)[C@@H](NC(=O)[C@H](CO)NC(=O)[C@H](CO)NC(=O)[C@H](CO)NC(=O)[C@H](CC(C)C)NC(=O)CNC(=O)[C@H](C)NC(=O)[C@H](CC(C)C)NC(=O)[C@@H](NC(=O)[C@@H](N)CC(=O)O)C(C)C)CSSC[C@H](NC(=O)CNC(=O)[C@H](Cc3c[nH]c4ccccc34)NC(=O)[C@H](CCCCN)NC2=O)C(=O)N[C@@H](CO)C(=O)N[C@@H](CCCCN)C(=O)N[C@@H](CO)C(=O)N[C@@H](CCC(=O)O)C(=O)N[C@@H]([C@@H](C)CC)C(=O)N[C@@H](CO)C(=O)N[C@@H](CO)C(=O)N[C@@H](CC(C)C)C(=O)N[C@H](C(=O)O)CSSC[C@@H](C(=O)NCC(=O)NCC(=O)N[C@@H](CO)C(=O)N[C@@H](CCCNC(=N)N)C(=O)N[C@@H](Cc2c[nH]c3ccccc23)C(=O)O)NC(=O)[C@H]([C@@H](C)O)NC(=O)[C@H](Cc2ccccc2)NC(=O)[C@H]([C@@H](C)CC)NC(=O)[C@H](C(C)C)NC(=O)[C@H](C)NC(=O)[C@H](CCCNC(=N)N)NC1=O  cAMP accumulation (Relaxin-3 receptor 1 (RXFP3, Homo sapiens, UniProt Q9NSD7); agonist; 1 µM, wild-type receptor): 3.08% and 6.61% and 5.38%

For quick reference, copied from above:
Nc1ncc(-c2cc(-c3cnn(CC(F)(F)F)c3)ncc2F)nc1C(=O)NC1CNCC(F)C1 (stereo not shown)  remaining binding (CAMK2D; KINOMEscan; 1 µM; relative to: DMSO control): 85%
CNS(=O)(=O)Nc1nccc(Cc2c(C)c3ccc(Oc4ncccc4F)cc3oc2=O)c1F  IC50 (GA-10; cell viability; 7 days): > 1000 nM
COC1CN([C@H]2CC[C@H]([C@@]3(C)Oc4c(Cl)cc(C(=O)NCc5c(SC)cc(C)[nH]c5=O)c(C)c4O3)CC2)C1  log2 fold change (RNA-seq, item: RAB19 mouse homolog; mouse, HT-1376 xenograft, whole blood; dose not given; relative to: vehicle): 0.25
N=C(N)NCCS(=O)(=O)O  normalised MST signal (Sodium- and chloride-dependent taurine transporter (SLC6A6, Homo sapiens, UniProt P31641, Y138A); binding, microscale thermophoresis; 488 nM, room temperature, together with: 50 nM labelled protein; higher = more binding): 0.0702
